# Measured values pooled from the literature.
# A part holds a random share of what one study measured. Several values in a cell are separate wells, animals, samples, runs or records.
# UniProt P0C264, sequence (whole entry, looked up): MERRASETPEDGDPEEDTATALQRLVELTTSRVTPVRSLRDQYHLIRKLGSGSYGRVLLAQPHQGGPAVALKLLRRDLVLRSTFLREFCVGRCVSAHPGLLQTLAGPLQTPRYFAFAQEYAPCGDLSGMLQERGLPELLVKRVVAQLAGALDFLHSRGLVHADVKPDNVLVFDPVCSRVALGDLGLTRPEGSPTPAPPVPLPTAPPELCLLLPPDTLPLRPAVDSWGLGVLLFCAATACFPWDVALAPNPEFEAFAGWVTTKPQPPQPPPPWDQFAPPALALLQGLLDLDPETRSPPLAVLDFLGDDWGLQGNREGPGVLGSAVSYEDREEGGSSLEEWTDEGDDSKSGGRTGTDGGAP
# UniProt Q15746, sequence (whole entry, looked up): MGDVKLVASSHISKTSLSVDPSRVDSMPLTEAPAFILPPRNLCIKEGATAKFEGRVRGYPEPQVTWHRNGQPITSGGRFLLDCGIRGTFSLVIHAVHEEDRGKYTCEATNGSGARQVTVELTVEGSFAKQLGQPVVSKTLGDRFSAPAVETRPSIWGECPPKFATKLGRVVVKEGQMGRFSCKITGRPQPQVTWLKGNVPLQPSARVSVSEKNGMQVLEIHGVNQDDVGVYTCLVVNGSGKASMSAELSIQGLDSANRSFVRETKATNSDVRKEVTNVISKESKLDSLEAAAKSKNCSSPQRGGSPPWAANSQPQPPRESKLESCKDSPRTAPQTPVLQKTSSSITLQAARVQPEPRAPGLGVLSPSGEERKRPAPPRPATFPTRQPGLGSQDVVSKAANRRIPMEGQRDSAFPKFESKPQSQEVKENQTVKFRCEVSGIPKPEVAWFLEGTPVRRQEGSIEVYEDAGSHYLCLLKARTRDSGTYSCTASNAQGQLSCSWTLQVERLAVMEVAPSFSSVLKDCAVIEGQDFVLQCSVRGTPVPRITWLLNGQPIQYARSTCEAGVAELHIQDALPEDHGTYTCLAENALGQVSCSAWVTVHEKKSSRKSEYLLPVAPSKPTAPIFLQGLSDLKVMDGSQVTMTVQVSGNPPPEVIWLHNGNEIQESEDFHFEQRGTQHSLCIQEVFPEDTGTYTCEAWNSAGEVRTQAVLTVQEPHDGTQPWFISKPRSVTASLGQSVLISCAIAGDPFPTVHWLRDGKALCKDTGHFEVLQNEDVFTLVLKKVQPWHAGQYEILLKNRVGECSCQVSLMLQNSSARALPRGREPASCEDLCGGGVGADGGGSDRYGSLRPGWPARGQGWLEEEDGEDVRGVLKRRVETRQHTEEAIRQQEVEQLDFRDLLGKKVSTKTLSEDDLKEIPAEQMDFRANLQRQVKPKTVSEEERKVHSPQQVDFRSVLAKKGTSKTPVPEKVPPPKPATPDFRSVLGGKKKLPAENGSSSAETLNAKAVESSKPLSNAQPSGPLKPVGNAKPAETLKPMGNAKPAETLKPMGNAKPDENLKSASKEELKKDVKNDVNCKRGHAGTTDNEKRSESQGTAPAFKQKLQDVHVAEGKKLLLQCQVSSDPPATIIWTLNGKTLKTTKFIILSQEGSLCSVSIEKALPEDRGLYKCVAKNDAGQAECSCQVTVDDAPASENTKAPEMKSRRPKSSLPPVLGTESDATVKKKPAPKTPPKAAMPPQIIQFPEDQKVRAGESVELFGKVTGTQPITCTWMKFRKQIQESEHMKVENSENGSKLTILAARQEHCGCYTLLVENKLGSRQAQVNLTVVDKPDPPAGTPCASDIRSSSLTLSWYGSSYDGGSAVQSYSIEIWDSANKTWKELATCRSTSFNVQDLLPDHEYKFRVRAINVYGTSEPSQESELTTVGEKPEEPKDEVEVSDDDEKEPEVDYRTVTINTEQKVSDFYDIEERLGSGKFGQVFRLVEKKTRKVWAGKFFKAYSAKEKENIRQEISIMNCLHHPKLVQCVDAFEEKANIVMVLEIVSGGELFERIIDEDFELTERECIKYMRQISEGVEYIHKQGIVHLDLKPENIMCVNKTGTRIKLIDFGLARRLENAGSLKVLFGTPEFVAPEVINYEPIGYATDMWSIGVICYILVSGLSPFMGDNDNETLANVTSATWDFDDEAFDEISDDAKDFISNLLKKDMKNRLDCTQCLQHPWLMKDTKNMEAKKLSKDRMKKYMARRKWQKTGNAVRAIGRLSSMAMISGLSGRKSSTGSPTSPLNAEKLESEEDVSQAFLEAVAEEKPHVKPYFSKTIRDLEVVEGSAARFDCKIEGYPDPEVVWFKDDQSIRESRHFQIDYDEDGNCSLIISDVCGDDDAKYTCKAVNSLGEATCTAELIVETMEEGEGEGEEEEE
# UniProt P51812, sequence (whole entry, looked up): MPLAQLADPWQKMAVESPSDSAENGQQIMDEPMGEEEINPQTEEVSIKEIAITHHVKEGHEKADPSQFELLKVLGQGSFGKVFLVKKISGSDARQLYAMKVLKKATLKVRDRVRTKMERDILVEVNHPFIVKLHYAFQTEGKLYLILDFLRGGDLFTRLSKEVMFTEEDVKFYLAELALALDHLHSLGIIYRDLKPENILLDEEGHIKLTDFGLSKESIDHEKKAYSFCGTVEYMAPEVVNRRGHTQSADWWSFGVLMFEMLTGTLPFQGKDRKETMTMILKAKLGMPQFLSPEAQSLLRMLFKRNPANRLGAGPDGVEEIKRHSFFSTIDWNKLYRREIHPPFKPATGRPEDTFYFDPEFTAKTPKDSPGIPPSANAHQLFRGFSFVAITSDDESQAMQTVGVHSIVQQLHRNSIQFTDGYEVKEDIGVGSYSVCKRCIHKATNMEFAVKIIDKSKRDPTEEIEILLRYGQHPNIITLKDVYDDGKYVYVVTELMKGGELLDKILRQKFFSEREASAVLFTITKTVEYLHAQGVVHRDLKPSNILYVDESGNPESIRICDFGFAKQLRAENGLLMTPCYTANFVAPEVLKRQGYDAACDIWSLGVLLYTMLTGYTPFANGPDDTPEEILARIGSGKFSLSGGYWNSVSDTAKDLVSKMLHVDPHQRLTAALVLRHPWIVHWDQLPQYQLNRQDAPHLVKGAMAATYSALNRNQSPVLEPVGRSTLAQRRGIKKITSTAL
# UniProt Q9UPE1, sequence (whole entry, looked up): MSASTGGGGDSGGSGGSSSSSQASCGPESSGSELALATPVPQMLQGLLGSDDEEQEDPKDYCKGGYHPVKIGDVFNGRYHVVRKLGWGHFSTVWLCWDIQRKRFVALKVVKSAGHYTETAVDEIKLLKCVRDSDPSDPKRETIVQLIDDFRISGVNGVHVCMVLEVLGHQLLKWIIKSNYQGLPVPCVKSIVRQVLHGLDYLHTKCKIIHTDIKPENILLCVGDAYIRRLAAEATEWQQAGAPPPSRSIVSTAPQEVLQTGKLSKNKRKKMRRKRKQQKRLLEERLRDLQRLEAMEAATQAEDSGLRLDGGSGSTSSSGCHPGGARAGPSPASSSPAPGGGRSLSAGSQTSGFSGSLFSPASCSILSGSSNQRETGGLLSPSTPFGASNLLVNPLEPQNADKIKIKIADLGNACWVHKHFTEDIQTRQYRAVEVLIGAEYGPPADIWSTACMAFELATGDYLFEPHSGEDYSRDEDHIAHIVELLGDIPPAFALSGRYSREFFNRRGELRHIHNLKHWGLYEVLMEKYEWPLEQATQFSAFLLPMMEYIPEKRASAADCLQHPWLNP
# UniProt P10721, sequence (whole entry, unmodified, looked up): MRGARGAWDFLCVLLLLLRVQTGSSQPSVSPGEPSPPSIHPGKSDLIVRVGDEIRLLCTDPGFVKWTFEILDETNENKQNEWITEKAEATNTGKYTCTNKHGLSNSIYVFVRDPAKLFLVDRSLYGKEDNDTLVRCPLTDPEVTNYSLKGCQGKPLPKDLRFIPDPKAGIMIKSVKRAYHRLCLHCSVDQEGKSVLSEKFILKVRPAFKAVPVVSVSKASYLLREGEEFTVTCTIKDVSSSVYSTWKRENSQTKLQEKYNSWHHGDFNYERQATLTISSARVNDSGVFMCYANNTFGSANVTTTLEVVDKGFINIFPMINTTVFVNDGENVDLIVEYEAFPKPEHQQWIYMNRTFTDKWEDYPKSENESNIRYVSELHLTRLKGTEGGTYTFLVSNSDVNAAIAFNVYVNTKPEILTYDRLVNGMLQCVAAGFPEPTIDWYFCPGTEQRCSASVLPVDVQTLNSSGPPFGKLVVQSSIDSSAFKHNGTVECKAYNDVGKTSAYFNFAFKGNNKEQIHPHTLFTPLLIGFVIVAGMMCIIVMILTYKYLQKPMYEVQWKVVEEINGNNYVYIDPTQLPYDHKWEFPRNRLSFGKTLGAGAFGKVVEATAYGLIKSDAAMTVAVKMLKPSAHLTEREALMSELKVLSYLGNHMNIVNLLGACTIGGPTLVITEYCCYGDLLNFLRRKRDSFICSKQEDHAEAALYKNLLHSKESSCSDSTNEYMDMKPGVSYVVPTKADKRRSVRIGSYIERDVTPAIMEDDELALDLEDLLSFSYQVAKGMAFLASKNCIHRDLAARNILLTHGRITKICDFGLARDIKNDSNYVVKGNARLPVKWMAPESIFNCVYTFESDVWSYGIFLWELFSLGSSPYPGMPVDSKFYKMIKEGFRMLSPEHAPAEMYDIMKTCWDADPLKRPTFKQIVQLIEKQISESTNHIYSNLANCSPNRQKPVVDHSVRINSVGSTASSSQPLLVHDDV

# Study 1
# Structure (SMILES): Cn1cncc1[C@@](O)(COc1ccc(C#N)cc1-c1ccc(OC(F)(F)F)cc1)c1ccc(C#N)cc1
# Observed: cell-free assay
# Technique: competition with immobilised ligand
# Concentration: 1 µM
target,remaining binding
"SBK3 (Homo sapiens, UniProt P0C264)",92%
"Ribosomal protein S6 kinase alpha-3, N-terminal kinase domain (RPS6KA3, Homo sapiens, UniProt P51812)",98%
"KIT (Homo sapiens, UniProt P10721, D816V)",100%
"MYLK (Homo sapiens, UniProt Q15746)",99%
"EGFR (Homo sapiens, UniProt P00533, del752-759)",64%
"SRPK3 (Homo sapiens, UniProt Q9UPE1)",56%
"EGFR (Homo sapiens, UniProt P00533, G719S)",74%
"CIT (Homo sapiens, UniProt O14578)",97%

# Study 2
# SMILES: CCCCC[C@@H](O)CC(=O)N[C@@H]1C(=O)N[C@H](CCCNC(=N)N)C(=O)N[C@@H](CO)C(=O)NCC(=O)N(C)[C@H](Cc2ccccc2)C(=O)N[C@@H](CC(C)C)C(=O)N[C@H](CCCNC(=N)N)C(=O)N[C@@H](CO)C(=O)N[C@H]([C@H](C)O)C(=O)N[C@H](Cc2c[nH]c3ccccc23)C(=O)N[C@@H]([C@@H](C)CC)C(=O)NCC(=O)O[C@@H]1C
# Organism: Staphylococcus aureus
# Strain: USA300
setting,MIC [µg/mL]
with: menaquinone 2 µg/mL,32
with: menaquinone 0 µg/mL,8
with: ubiquinone 0 µg/mL,8
with: menaquinone 1 µg/mL,32

# Study 3
# Target: Eukaryotic initiation factor 4A-III (Homo sapiens, UniProt P38919)
# UniProt P38919, sequence (whole entry, looked up): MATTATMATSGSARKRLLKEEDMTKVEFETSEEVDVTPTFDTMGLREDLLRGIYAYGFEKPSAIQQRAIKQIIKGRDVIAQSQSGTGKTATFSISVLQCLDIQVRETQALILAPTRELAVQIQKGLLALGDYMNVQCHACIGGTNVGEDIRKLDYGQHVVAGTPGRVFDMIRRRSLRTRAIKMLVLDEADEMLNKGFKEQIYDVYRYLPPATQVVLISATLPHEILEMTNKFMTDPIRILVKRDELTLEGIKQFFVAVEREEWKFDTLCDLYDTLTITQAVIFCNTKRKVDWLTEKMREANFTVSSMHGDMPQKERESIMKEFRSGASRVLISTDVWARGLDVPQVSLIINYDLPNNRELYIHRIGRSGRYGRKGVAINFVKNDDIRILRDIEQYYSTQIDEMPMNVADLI
# Observed: RNA clamping
# Technique: fluorescence polarization
# Concentration: concentration not given
# Notes: mean of two replicates
# With: FAM-labelled poly r(AG)8 RNA
Structure (SMILES),fluorescence polarization change
COCC1=N[C@@]2(O)[C@H](C(=O)N(C)OC)[C@@H](c3ccccc3)[C@]3(c4ccc(OC)cc4)Oc4cc(OC)cc(OC)c4[C@]23N1,28.2 mP
COc1ccc([C@@]23Oc4cc(OC)cc(OC)c4[C@]2(O)c2nc4n(c(=O)c2[C@H]3c2ccccc2)CCC4)cc1,46 mP and 38.9 mP
COC(=O)[C@@H]1[C@@H](c2ccccc2)[C@]2(c3ccccc3)Oc3ccccc3[C@@]1(O)[C@H]2O,1 mP
COCCN[C@]12c3c(OC)cc(OC)cc3O[C@@]1(c1ccc(OC)cc1)[C@H](c1ccccc1)C[C@@H]2O,4.3 mP
COc1ccc([C@@]23Oc4cc(OC)cc(OC)c4[C@]2(O)c2nc[nH]c(=O)c2[C@H]3c2ccccc2)cc1,12.9 mP
COC(=O)[C@H]1[C@@H](O)[C@@]2(O)c3c(OC)cc(O)cc3O[C@@]2(c2ccc(OC)cc2)[C@@H]1c1ccccc1,41.2 mP
COC(=O)[C@@H]1[C@@H](O)[C@@]2(O)c3c(OC)cc(OC)cc3O[C@@]2(c2ccc(OC)cc2)[C@H]1c1ccccc1,6.8 mP
COC(=O)[C@H]1[C@@H](c2ccccc2)C2(c3ccc(OC)cc3)Oc3cc(OC)cc(OC)c3[C@@]1(O)C2=O,0.6 mP
COc1ccc([C@@]23Oc4cc(OC)cc(OC)c4[C@]2(O)c2nc(-c4ccccc4)[nH]c(=O)c2[C@@H]3c2ccccc2)cc1,5.7 mP

# Further values, each from its own experiment
Structure (SMILES),target,assay,setting,how to read,quantity,result
CCc1cc2c(s1)-n1c(C)nnc1CN=C2c1ccccc1Cl,"DNA polymerase theta, ATPase domain (POLQ, Homo sapiens, UniProt O75417)","enzyme activity, inhibitor",77 µM,relative to: untreated,remaining activity,93.1%

# For quick reference, copied from above (study 2):
setting,MIC [µg/mL]
with: menaquinone 2 µg/mL,32
with: menaquinone 0 µg/mL,8
with: menaquinone 1 µg/mL,32
